{"data": "Assay results gathered from unrelated publications", "note": "Each line is one published result; not all experiments were run side by side. ± marks the error that the study gave."}
{"SMILES": "C=C(NC(=O)c1csc(-c2cccnc2)n1)C(=O)NC(=C)C(=O)OC", "cell line": "OCI", "assay": "cell viability", "EC50 [nM]": 1200}
{"SMILES": "Cc1cc(C)nc(NC(=S)N2CCN(c3ccncc3)CC2)c1", "cell line": "MDA-MB-468 (high PHGDH)", "assay": "cell viability, CellTiter-Glo", "setting": "4 days", "EC50 [nM]": "> 100000"}
{"SMILES": "CC(C)(C)c1cc(-c2ccc3cccnc3n2)nc(-c2ccc3cccnc3n2)c1.COc1ccncc1.[Cl-].[Cl-].[Ru+2].c1ccc2cc3nc4c5cccnc5c5ncccc5c4nc3cc2c1", "cell line": "B16-F10", "assay": "resazurin", "setting": "together with: light 633 nm, 20 mW, 100 J/cm2", "EC50 [nM]": "2120 ± 100"}
{"SMILES": "NC(=O)c1nnn(Cc2cc(Cl)c(C(=O)c3ccc(Cl)cc3)c(Cl)c2)c1N", "cell line": "human iPSC-derived cardiomyocytes", "assay": "calcium transient peak spacing, calcium transient", "setting": "15 min", "EC50 [nM]": 2100}
{"SMILES": "Cc1nc(NCCOCCOCCNc2ncc(C(=O)NC3=NN(c4ccc(Cl)c(Cl)c4)CC3)c(C)n2)ncc1C(=O)NC1=NN(c2ccc(Cl)c(Cl)c2)CC1", "cell line": "KYO1", "assay": "cell growth or viability, ATP luminescence", "setting": "72 h", "EC50 [nM]": 40}
{"SMILES": "O=C(Nc1ccc(C(F)F)cc1)[C@H](CC1CCCCC1)Nc1nn2c(=O)ccnc2s1", "cell line": "K562 p21-reporter", "assay": "p21 reporter gene, activator", "EC50 [nM]": 130}
{"SMILES": "CC(C)c1ccc(N(C)c2ccc3c(c2)OCC[C@H]3CNc2cnccc2C(=O)O)cc1", "cell line": "HCC1937", "assay": "apoptosis, measured: caspase-3/7", "setting": "72 h", "how to read": "relative to: panobinostat", "EC50 [nM]": "> 100000"}
{"SMILES": "CC(C)C[C@@H](/C=C/CC(=O)N1CCC[C@H]1C(=O)N[C@H](C(=O)N[C@@H](CCCNC(=O)OCc1ccccc1)C(=O)NC1CC(C)(C)N([O])C(C)(C)C1)C(C)C)NC(=O)OC(C)(C)C", "cell line": "BJeLR", "assay": "protection from ferroptosis, PrestoBlue", "setting": "24 h, together with: erastin 10 µM", "EC50 [nM]": 368}
{"SMILES": "CC(=O)N[C@@H](CC1CCCCC1)C(=O)N[C@H]1CSSC[C@@H](C(=O)N[C@@H](CCCNC(=N)N)C(N)=O)NC(=O)[C@H](CC2CCCCC2)NC(=O)[C@H](CCCNC(=N)N)NC(=O)[C@H](CCCNC(=N)N)NC(=O)[C@H](CC2CCCCC2)NC(=O)[C@H](CC(C)C)NC(=O)[C@H](CCCNC(=N)N)NC(=O)[C@@H](NC(=O)[C@H](CC2CCCCC2)NC(=O)c2ccc3c(c2)C(=O)OC32c3ccc(N(C)C)cc3Oc3cc(N(C)C)ccc32)CSSC[C@@H](C(=O)N[C@@H](CCCNC(=N)N)C(N)=O)NC(=O)[C@H](CC2CCCCC2)NC(=O)[C@H](CCCNC(=N)N)NC(=O)[C@H](CCCNC(=N)N)NC(=O)[C@H](CC2CCCCC2)NC(=O)[C@H](CC(C)C)NC(=O)[C@H](CCCNC(=N)N)NC1=O", "cell line": "human tubular epithelial cells", "assay": "cell penetration, flow cytometry", "setting": "3 h", "EC50 [nM]": 20}
{"SMILES": "CC(C)C[C@@H](/C=C/[C@H](Cc1ccccc1)C(=O)N1CCC[C@H]1C(=O)N[C@H](C(=O)N[C@@H](CCCNC(=O)OCc1ccccc1)C(=O)NC1CC(C)(C)N([O])C(C)(C)C1)C(C)C)NC(=O)OCC[S+]([O-])CC1(C)COC1 (stereo partly drawn)", "cell line": "BJeLR", "assay": "protection from ferroptosis, PrestoBlue", "setting": "24 h, together with: erastin 10 µM", "EC50 [nM]": 2890}
{"SMILES": "C=C(NC(=O)c1csc(-c2ccc(NC(=O)CCCCCBr)cc2)n1)C(=O)NC(=C)C(=O)OC", "cell line": "NCI-H358", "assay": "cell viability", "EC50 [nM]": 2100}
{"SMILES": "[Cl-].[Cl-].[Ru+2].c1cc(-c2ccc3cccnc3n2)nc(-c2ccc3cccnc3n2)c1.c1ccc2cc3nc4c5cccnc5c5ncccc5c4nc3cc2c1", "cell line": "B16-F10", "assay": "resazurin", "setting": "together with: light 733 nm, 9 mW, 100 J/cm2", "EC50 [nM]": 54100}
